Measured values from different studies.
Every numbered part comes from another study and shows a few of its results, in no order. Changes are numbered by the printed parent chain.

Set 1 — method: protein-binding microarray; molecule type: double-stranded DNA, one strand shown; matrix: in vitro; tested at: 250 nM; setting: 60-bp whole probe; added: salmon DNA 0.4 mg/ml; relative to: random background probes; direction: higher = stronger binding; all sequences stand within: GCCTAGCAC … GTCTTGATTCGCTTGACGCTGCTG
Target: Interferon regulatory factor 7, full length, phosphomimetic (IRF7, Homo sapiens, UniProt Q92985, residues 1-503, S101K/S471D/S472D/S475D/S476D/S477D/S483D/S484D/S487D)
Sequence of UniProt Q92985 (whole entry, unmodified, looked up): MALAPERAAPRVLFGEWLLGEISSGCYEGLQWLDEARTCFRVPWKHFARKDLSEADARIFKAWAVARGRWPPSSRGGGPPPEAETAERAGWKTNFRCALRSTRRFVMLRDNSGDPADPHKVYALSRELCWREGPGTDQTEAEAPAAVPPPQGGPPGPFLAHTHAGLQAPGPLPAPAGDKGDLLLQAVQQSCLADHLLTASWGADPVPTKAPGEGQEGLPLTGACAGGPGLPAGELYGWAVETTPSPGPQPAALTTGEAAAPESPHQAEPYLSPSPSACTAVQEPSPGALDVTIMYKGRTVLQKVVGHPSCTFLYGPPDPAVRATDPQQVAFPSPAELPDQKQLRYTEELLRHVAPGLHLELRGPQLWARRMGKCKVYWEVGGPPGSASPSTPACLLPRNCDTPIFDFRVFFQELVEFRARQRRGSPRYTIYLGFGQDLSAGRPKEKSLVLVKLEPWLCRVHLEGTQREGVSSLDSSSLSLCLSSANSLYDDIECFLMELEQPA
Strand | log fluorescence [z-score]
TTAGATTTCGGGTATCGCTTAGTGCTA | 1.39
TTAGATATCAGTACCGATTAGTGCTAG | 0.401
GAAGATATCAGACTGGAGACGTGCTAG | -0.21
GCCGAACTGGGGACTGGAGACGTGCTA | -0.805
TCAGCTGTGGGTTTGAGACTGTGCTAG | -1.15
TTAGGTTTCAGTTCCGGTTAGTGCTAG | 5.17
TTGCTTTCCTTTATGTACTCGTGCTAG | 1.49
TCAAAAGTCTTTTATGGTACTGTGCTA | 0.0474

Set 2 — method: RNAcompete; molecule type: RNA; matrix: in vitro; tested at: 20 nM; setting: 7-mer, probes averaged, single round; relative to: mean of 7-mers; direction: higher = stronger binding
Target: PABPC1L2, full length, GST fusion (mouse, UniProt A0ABA7IW68)
Target sequence (chain): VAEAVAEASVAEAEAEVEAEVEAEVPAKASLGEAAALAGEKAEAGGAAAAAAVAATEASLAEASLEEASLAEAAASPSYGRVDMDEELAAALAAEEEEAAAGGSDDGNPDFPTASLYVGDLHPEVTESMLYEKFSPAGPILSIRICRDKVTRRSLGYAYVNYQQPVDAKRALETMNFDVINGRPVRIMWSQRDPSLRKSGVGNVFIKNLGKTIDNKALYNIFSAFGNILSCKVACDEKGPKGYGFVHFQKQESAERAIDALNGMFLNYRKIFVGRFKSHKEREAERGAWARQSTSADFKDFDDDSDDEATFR
Strand | 7-mer Z-score
CGCCUGA | -0.222
GAGUCUG | -0.32
UUAUUGC | -0.112
GGAAUCG | -0.11
AGGGGUC | 0.196
ACAAAAG | 2.49
GAGGAUG | 0.0696
GCCCCAA | -0.159

Set 3 — target: CCNB3, cyclin fold, Cln2 fusion (human); method: yeast growth competition, sequencing; matrix: yeast; setting: strong parent motif; relative to: not given; direction: higher = stronger binding
Starting sequence: viral docking peptide; KGVKRKLFAEDSS; partner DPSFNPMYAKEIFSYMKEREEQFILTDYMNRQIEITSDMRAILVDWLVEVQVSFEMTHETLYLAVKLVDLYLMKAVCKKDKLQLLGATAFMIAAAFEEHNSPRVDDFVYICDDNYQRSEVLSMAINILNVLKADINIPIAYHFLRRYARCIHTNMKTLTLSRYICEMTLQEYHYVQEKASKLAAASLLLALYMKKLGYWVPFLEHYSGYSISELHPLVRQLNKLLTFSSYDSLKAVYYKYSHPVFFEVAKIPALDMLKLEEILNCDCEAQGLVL
Variant | normalised enrichment score
R5Y | 0.133
R5P | 0.132
G2N | 3.26
L7R | 0.102
E10T | 2.14
K4H | 0.418
L7P | 0.0878
L7A | -0.241
K4D | -0.0992
F8T | -0.179
L7H | -0.137
D11Q | 1.87
V3L | 1.22
A9Q | 3.47
R5A | 0.282
S12K | 2.54
A9W | 1.14

Other studies, line by line
Starting sequence: PafA, mature enzyme, eGFP fusion (Elizabethkingia meningoseptica, UniProt Q9KJX5); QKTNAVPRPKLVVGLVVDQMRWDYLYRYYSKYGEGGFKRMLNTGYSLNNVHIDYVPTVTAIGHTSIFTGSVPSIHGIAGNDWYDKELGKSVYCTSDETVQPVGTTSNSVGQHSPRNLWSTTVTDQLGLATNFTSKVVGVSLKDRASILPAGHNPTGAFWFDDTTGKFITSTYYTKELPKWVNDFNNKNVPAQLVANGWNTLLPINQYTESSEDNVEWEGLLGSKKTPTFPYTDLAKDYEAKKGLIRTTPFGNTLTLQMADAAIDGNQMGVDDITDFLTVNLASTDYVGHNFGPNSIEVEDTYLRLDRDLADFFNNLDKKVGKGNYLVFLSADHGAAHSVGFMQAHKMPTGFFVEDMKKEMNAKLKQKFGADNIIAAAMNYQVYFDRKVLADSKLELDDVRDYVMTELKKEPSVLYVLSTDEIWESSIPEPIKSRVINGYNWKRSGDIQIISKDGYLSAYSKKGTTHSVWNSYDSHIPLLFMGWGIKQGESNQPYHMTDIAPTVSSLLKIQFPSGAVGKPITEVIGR
Variant | target | test | test system | setting | how to read | measurement | result
N294V | tungstate, free oxyanion | microfluidic competitive inhibition | in vitro, cell-free expressed | not given, derived from inhibition constants, unchanged parent 2230 nM | lower = stronger binding | oxyanion analog dissociation constant | 2.46 µM

For quick reference, copied from above (set 3):
Variant | normalised enrichment score
R5P | 0.132
G2N | 3.26
L7R | 0.102
E10T | 2.14
